Published values collected from several papers.
Each line is one published result; not all experiments were run side by side. ± gives the spread as reported.
Chain of UniProt P39135 (whole entry, looked up): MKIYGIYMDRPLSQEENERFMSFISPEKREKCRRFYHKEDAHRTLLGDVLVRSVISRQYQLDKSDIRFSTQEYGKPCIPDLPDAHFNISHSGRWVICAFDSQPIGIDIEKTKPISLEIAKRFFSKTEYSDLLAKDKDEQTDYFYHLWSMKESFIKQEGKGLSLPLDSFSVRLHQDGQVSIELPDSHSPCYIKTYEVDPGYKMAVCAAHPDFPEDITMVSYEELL
Chain of UniProt P17706 (whole entry, looked up): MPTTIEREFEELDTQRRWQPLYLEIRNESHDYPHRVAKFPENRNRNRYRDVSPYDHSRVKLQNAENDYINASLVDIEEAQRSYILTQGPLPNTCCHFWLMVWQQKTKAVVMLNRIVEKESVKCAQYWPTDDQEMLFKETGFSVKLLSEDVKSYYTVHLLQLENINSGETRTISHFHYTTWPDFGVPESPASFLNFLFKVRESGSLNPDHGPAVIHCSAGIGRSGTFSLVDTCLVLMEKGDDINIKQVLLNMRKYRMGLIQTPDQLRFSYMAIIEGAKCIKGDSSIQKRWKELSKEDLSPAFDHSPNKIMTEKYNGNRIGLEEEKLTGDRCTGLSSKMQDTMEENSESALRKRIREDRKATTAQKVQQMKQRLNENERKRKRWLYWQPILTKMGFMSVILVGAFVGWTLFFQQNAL
Chain of UniProt Q9NQR1 (whole entry, looked up): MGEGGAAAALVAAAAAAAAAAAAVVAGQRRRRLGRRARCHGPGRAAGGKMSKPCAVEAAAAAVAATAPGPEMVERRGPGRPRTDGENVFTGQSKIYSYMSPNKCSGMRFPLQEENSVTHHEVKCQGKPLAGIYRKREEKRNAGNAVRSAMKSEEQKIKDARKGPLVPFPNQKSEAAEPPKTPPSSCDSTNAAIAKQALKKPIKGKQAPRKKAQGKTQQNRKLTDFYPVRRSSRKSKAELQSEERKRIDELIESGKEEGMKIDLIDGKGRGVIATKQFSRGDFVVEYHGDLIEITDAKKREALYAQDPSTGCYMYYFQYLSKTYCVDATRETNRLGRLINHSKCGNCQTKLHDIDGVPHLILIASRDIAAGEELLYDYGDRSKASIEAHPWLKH
Chain of UniProt O08914 (whole entry, looked up): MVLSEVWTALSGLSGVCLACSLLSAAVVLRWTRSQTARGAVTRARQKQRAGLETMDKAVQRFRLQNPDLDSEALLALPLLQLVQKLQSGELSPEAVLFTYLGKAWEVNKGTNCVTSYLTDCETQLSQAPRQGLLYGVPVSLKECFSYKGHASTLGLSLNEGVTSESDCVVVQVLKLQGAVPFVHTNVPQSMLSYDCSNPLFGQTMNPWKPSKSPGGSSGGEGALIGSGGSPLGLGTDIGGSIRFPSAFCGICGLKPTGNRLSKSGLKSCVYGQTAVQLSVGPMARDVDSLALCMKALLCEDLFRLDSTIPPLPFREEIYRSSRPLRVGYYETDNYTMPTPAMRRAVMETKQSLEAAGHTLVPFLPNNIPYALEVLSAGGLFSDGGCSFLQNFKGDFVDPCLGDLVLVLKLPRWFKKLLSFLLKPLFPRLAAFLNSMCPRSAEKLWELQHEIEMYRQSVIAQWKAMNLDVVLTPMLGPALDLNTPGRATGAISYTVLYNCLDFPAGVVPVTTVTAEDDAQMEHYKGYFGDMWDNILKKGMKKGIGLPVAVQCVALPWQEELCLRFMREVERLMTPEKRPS
Chain of UniProt P22789 (whole entry, looked up): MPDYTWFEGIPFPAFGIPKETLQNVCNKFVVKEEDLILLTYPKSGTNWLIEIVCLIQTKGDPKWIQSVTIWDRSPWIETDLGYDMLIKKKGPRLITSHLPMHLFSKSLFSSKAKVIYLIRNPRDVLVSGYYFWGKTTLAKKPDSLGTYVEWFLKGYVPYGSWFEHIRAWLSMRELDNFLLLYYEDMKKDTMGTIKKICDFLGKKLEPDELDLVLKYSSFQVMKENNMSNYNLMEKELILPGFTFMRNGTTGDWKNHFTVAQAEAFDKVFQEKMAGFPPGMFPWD
Chain of UniProt P29475 (whole entry, looked up): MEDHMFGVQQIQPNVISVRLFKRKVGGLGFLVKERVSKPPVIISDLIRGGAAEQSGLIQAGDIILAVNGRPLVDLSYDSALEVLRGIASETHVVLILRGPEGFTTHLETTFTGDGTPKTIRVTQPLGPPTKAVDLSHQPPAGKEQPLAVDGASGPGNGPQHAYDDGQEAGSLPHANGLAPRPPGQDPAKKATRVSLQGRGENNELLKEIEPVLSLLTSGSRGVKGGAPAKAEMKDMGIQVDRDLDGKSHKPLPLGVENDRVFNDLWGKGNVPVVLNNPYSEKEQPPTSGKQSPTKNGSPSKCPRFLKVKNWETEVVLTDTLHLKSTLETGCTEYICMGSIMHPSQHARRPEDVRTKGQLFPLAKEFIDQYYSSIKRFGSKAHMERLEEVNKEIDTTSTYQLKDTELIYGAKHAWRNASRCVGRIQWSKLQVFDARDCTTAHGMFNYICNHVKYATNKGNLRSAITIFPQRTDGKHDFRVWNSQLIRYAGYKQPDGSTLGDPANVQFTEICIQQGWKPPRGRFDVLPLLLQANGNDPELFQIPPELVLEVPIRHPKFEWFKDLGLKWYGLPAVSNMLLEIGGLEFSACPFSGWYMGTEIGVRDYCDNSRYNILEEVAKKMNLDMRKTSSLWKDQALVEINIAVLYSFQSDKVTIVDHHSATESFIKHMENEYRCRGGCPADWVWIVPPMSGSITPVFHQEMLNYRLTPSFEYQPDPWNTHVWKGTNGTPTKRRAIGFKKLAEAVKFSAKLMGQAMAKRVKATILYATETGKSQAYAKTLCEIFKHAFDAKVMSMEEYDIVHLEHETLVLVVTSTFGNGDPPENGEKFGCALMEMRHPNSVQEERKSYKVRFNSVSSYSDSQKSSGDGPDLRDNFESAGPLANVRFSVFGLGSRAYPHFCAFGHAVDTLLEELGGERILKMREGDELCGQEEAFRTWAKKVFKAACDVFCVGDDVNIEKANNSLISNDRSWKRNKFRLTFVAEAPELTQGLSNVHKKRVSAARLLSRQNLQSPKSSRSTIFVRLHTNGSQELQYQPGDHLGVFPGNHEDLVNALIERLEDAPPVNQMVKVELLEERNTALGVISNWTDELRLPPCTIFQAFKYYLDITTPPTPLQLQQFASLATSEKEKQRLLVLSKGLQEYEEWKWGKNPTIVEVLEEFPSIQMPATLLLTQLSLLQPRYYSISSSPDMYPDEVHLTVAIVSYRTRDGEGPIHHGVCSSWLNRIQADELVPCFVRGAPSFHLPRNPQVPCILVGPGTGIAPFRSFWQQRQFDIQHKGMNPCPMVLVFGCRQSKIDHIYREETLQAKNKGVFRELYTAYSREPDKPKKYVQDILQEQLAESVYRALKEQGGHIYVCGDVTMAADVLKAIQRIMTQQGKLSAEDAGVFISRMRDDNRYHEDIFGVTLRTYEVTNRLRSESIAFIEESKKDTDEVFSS
Chain of UniProt Q2PAY2 (whole entry, looked up): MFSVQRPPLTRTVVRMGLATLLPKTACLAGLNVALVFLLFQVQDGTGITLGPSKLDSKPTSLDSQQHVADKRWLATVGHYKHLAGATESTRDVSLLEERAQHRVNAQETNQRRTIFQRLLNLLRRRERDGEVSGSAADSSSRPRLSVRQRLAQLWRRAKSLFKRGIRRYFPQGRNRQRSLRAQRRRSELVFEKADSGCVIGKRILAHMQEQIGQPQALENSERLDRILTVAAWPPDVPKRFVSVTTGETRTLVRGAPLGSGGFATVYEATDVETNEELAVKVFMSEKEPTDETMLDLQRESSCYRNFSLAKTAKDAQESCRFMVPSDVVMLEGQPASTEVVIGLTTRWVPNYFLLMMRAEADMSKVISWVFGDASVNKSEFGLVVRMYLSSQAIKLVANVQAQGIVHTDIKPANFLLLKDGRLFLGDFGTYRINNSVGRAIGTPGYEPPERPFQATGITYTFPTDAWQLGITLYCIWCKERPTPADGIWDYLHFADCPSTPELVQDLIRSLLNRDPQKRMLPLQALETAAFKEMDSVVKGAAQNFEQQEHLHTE
Chain of UniProt P28223 (whole entry, looked up): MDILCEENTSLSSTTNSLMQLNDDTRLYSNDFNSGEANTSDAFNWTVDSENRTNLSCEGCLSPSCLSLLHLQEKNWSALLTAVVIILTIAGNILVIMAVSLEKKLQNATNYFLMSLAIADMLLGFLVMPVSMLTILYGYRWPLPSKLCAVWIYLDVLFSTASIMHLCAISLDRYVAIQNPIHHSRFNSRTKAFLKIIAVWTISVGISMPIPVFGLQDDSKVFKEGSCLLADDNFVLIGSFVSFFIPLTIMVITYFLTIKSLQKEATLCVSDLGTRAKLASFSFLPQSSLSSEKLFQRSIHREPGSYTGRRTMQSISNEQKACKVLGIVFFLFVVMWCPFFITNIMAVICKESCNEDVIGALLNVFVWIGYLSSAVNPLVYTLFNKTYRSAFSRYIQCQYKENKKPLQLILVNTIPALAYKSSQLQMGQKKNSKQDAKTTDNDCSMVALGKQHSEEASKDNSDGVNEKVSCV
Chain of UniProt P06276 (whole entry, looked up): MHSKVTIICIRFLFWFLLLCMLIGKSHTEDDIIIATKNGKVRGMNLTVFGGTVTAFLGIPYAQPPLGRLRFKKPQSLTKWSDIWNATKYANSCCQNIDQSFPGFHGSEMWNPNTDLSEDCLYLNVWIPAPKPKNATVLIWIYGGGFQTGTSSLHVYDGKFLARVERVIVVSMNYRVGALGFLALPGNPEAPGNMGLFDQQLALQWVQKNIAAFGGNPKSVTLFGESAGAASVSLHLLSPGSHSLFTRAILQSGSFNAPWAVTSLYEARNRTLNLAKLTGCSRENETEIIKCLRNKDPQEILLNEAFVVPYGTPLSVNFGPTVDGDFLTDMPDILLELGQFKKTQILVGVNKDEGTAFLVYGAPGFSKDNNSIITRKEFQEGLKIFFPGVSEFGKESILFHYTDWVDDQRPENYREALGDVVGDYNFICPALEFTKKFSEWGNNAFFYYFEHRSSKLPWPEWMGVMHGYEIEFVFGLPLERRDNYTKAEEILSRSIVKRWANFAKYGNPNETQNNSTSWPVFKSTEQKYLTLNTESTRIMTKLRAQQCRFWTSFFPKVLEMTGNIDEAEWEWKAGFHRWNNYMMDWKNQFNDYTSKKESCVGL

With `CN1CCN(Cc2ccc(NC(=O)c3cncc(C#Cc4cnc(N)c5ncccc45)c3)cc2C(F)(F)F)CC1` the IC50 was 0.0099 ± 0.0011 µM (Breakpoint cluster region protein/Tyrosine-protein kinase ABL1 (Homo sapiens, UniProt P00519+P11274)).
The IC50 of `CC(C)c1ccc(NC(=O)Oc2ccc3c(c2)[C@]2(C)CCN[C@@H]2N3)cc1` is reported as 0.00266 ± 9e-05 µM (Cholinesterase (BCHE, Homo sapiens, UniProt P06276); enzyme activity, inhibitor, immobilized enzyme reactor, HPLC-UV; immobilized recombinant human enzyme; inhibition plateau, L-tartrate salt).
The IC50 of `CC[C@@]1(O)C(=O)OCc2c1cc1n(c2=O)Cc2cc3c(CN(C)C)c(O)ccc3nc2-1` is reported as 0.75 µM (ERRα (human); reporter gene, antagonist, luciferase reporter qHTS).
`O=C1Nc2ccc(S(=O)(=O)O)cc2C1=C1Nc2ccccc2C1=NO` gave an IC50 of 2.29 µM (Putative glycogen synthase kinase (Leishmania major, UniProt Q4QE15, D105E/Y102F); enzyme activity, inhibitor; 90 min, 30 °C, added: ATP 2 µM).
For `COc1cccc(C(=O)C2CCN(CCc3ccc(F)cc3)CC2)c1OC`, the IC50 was 0.034 µM (5-hydroxytryptamine receptor 2A (HTR2A, Homo sapiens, UniProt P28223); calcium signal, antagonist).
For `CN(Cc1cccc(-c2ccncc2)c1)C(=O)OC(C(F)(F)F)C(F)(F)F`, the IC50 was over 50 µM (Fatty-acid amide hydrolase 1 (Faah, Mus musculus, UniProt O08914); competitive ABPP; mouse brain membrane proteome).
`C[N+]1(C)CCC(OC(=O)C(c2ccccc2)c2ccccc2)CC1` gave an IC50 of 8.74 µM (Lysosomal acid glucosylceramidase (GBA1, Homo sapiens, UniProt P04062, R534H); enzyme activity, inhibitor; pH 5.9, 1.9 nM enzyme, added: 30 µM resorufin β-glucoside).
For `Nc1cccc2c1C(=O)c1cccc(N)c1C2=O`, the IC50 was 4.7 µM (mRNA triphosphatase Cet1 (Trypanosoma brucei brucei, UniProt Q582T2); enzyme activity, Transcreener ADP fluorescence polarization; 3 h, added: 50 µM ATP).
`O=C([O-])c1ccccc1-c1c2cc(Br)c(=O)cc-2oc2[c]([Hg+])c([O-])c(Br)cc12.[Na+].[Na+].[OH-]` gave an IC50 of 4.2 µM (N-lysine methyltransferase KMT5A (KMT5A, Homo sapiens, UniProt Q9NQR1); enzyme activity, inhibitor).
With `CCc1ccc(C(=O)NCCCC[C@H](NC(=O)[C@H](Cc2ccc(C(F)(F)P(=O)(O)O)cc2)NC(=O)[C@H](Cc2ccccc2)NC(=O)CO[C@H]2C[C@@H](C)CC[C@@H]2C(C)C)C(N)=O)cc1` the IC50 was 0.0092 ± 0.0014 µM (Tyrosine-protein phosphatase non-receptor type 2 (PTPN2, Homo sapiens, UniProt P17706); enzyme activity, inhibitor; no preincubation, added: pNPP substrate).
The IC50 of `O=C(O)c1ccc(NCc2cc(Cl)cc(Cl)c2O)cc1O` is reported as 12.8 µM (Nitric oxide synthase 1, PDZ domain (Homo sapiens, UniProt P29475); PSD95-nNOS binding disruption, inhibitor, AlphaScreen).
The IC50 of `Cc1ccc(C2=NN(C(=O)CCC(=O)O)C(c3cn(-c4ccccc4)nc3-c3ccc(C)cc3)C2)cc1` (stereo not shown) is reported as 20.3 µM (Replication protein A 70 kDa DNA-binding subunit (RPA1, Homo sapiens, UniProt P27694); protein-nucleic acid interaction, inhibitor, mobility shift).
For `CC(C)(COP(=O)(O)OP(=O)(O)OC[C@H]1O[C@@H](n2cnc3c(N)ncnc32)[C@H](O)[C@@H]1OP(=O)(O)O)[C@@H](O)C(=O)NCCC(=O)NCCS`, the IC50 was 7 µM (sfp (Bacillus subtilis, UniProt P39135); phosphopantetheinylation, inhibitor, fluorescence polarization; 45 min, pH 7.6, 10% DMSO, added: VibB 10 µM).
`Oc1c(Cl)cc(-c2ccc(Cl)cc2Cl)cc1Cl` gave an IC50 of about 32 µM (Sulfotransferase 2A6 (Sult2a6, Rattus norvegicus, UniProt P22789); enzyme activity, inhibitor; 6 min, 37 °C, added: DHEA 10 µM).
`CS(=O)(=O)Cc1ccc(Nc2nccc(-c3c(-c4cccc(NC(=O)c5c(F)cccc5F)c4)nn4ccccc34)n2)cc1` has an IC50 of 0.44 µM (ROP18 (Toxoplasma gondii, UniProt Q2PAY2); enzyme activity, inhibitor).
`C=CCN=C=S` has an IC50 of 3.69 µM (Macrophage migration inhibitory factor (MIF, Homo sapiens, UniProt P14174); enzyme activity, inhibitor; with preincubation).

Excerpt of the above:
With `CCc1ccc(C(=O)NCCCC[C@H](NC(=O)[C@H](Cc2ccc(C(F)(F)P(=O)(O)O)cc2)NC(=O)[C@H](Cc2ccccc2)NC(=O)CO[C@H]2C[C@@H](C)CC[C@@H]2C(C)C)C(N)=O)cc1` the IC50 was 0.0092 ± 0.0014 µM (Tyrosine-protein phosphatase non-receptor type 2 (PTPN2, Homo sapiens, UniProt P17706); enzyme activity, inhibitor; no preincubation, added: pNPP substrate).
